Assay results gathered from unrelated publications.
Values joined by “and” are separate records of one study, mostly repeats; a detail may differ. Numbers after ± are the reported error.
CYP2C8: Cytochrome P450 2C8 (CYP2C8, Homo sapiens, UniProt P10632)
UniProt P10632, sequence (whole entry, looked up): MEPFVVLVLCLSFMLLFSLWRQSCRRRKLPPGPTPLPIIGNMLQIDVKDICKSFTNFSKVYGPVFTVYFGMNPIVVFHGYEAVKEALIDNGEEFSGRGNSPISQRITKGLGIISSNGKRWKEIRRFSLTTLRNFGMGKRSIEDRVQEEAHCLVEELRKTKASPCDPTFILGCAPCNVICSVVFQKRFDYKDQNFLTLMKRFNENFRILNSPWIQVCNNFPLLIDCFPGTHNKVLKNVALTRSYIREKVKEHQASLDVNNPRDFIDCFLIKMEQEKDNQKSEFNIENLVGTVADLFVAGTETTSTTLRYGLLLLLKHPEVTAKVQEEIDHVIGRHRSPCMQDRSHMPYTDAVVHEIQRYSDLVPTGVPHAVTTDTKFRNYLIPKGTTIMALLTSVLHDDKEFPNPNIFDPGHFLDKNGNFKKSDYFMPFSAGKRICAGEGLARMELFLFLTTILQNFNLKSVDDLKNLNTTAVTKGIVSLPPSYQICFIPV
UniProt P08684, sequence (whole entry, looked up): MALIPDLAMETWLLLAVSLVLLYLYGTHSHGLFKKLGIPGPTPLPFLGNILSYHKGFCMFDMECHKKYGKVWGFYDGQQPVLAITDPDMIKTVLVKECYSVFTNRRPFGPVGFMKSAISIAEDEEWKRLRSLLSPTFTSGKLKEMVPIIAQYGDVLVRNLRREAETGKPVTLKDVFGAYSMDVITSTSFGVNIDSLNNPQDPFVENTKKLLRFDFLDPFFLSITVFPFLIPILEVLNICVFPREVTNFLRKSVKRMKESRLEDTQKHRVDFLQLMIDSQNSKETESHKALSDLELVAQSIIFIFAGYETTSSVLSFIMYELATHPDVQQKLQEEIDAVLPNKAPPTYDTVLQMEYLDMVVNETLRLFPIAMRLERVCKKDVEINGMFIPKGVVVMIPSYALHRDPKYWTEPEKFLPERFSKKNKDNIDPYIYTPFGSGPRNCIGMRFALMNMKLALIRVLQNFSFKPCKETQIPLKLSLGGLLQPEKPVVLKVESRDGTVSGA

| Compound | target or system | assay | test system | conditions | scale | quantity | result |
| --- | --- | --- | --- | --- | --- | --- | --- |
| CCC[P+](/C=C(/c1ccccc1)c1cc(Cl)ccc1O)(CCC)CCC.[Cl-] | human red blood cells | – | PBS | 1 h, 37 °C | – | HC50 | 90 µM |
| CC(C)C[C@H](NC(=O)[C@H](Cc1ccccc1)NC(=O)c1cnccn1)B(O)O | CHP-212 parental | SRB | – | 0.04115 µM | – | viability | 96% and 97.3% |
| Cc1cc(Nc2ncnc3ccc(NC4=NC(C)(C)CO4)cc23)ccc1Oc1ccn2ncnc2c1 | CYP2C8 | – | human, plasma | oral, 300 mg single dose, day 1, arithmetic mean | – | CL/F | 129 L/h |
| CCCCCCCC[P+](/C=C(/c1ccccc1)c1cc(Cl)ccc1O)(CCCCCCCC)CCCCCCCC.[Cl-] | human red blood cells | – | PBS | 1 h, 37 °C | – | HC50 | 140 µM |
| CC(C)=CC(=O)Nc1ccc(C2=C(c3ccc(O)cc3)C3CC(S(=O)(=O)Oc4ccc(O)cc4)C2O3)cc1 (stereo not shown) | MCF-10A | cell viability | – | 72 (unit not given) | – | IC50 | 13.6 ± 0.35 µM |
| Cc1cccc(C)c1OCC(=O)N[C@@H](Cc1ccccc1)[C@@H](O)C[C@H](Cc1ccccc1)NC(=O)[C@H](C(C)C)N1CCCNC1=O | HEK293T tetracycline-induced EGFP-ΔE | cytotoxicity | – | – | relative to: vehicle | EC50 | 37.2 µM |
| Cc1ncc([N+](=O)[O-])n1CCOC(=O)c1ccccc1 | pigeon embryo fibroblasts | – | – | – | – | CC50 | ~200 µM |
| CC(=NNC(=O)COc1ccc2c(C)c(Cc3ccccc3)c(=O)oc2c1C)c1ccc(Br)cc1 | HPrEC normal prostate epithelial cells | MTT | – | 1.6 µg/mL, 2% serum | – | viability | 73% |
| C/C=C/C(=O)Nc1ccc(C2=C(c3ccc(O)cc3)C3OC2CC3S(=O)(=O)N(CC(F)(F)F)c2ccc(O)cc2)cc1 (stereo not shown) | MCF-10A | cell viability | – | 72 (unit not given) | – | IC50 | 19.2 ± 3.89 µM |
| CCCC[P+](/C=C(/c1ccccc1)c1cc(Cl)ccc1OC)(CCCC)CCCC.[I-] | human red blood cells | – | PBS | 1 h, 37 °C | – | HC50 | 105 µM |
| CC/C(=C(/c1ccc(OCCNC)cc1)c1ccc(B2OC(C)(C)C(C)(C)O2)cc1)c1ccccc1 | MCF7 | – | – | 0.1 µM | relative to: vehicle | cell growth | 69% |
| CC(C)=CC(=O)Nc1ccc(C2=C(c3ccc(O)cc3)C3CC(S(=O)(=O)N(CC(F)(F)F)c4ccccc4)C2O3)cc1 (stereo not shown) | MCF-10A | cell viability | – | 72 (unit not given) | – | IC50 | > 50 µM |
| CC(=O)c1c(O)c(C)c(O)c2c1OC1=CC(=O)C(C(C)=O)C(=O)C12C (stereo not shown) | pigeon embryo fibroblasts | – | – | – | – | CC50 | 45 µM |
| Cc1cc(C(=O)NC(C)(C)COc2cccc3c2C(N)=NS(=O)(=O)N3)cc(C)n1 | human peripheral blood lymphocytes | CBPI, preliminary test | – | 600 µg/mL, 4 h, added: rat liver S9 | relative to: vehicle control | cytotoxicity | 10% |
| O=c1[nH]cc(F)c(=O)[nH]1 | MCF7 | CCK-8 | – | 50 µM, 72 (unit not given) | relative to: untreated control | viability | 90.1 ± 1.04% |
| COc1cc2ncnc(Nc3ccc(Oc4ccccc4)c(C)c3C)c2cc1OC.Cl | LoVo (KRAS G13D) | resazurin | – | 3 µM, 72 h, added: trametinib 0 nM | relative to: DMSO | viability fraction | 0.704 |
| CC[C@H]1[C@@H](O)[C@@H]2[C@H](CC[C@]3(C)[C@@H]([C@H](C)CCNC(=O)NS(=O)(=O)c4ccc(C(C)(C)C)cc4)CC[C@@H]23)[C@@]2(C)CC[C@@H](O)C[C@@H]12 | Cytochrome P450 3A4 (CYP3A4, Homo sapiens, UniProt P08684) | – | human, plasma | mean, added: fluconazole | – | CL/F | 3.52 L/h |
| COc1cccc2c1C(=O)c1c(O)c3c(c(O)c1C2=O)C[C@@](O)(C(=O)CO)C[C@@H]3O[C@H]1C[C@H](N)[C@H](O)[C@H](C)O1 | CHP-212 parental | SRB | – | 3.333 µM | – | viability | 2.73% and 2.99% |
| Cc1noc(C)c1Cn1cc(N2C(=O)CN(Cc3cccc(O)c3)C2=O)cn1 | human blood lymphocytes | – | – | 600 µg/mL, 21 h | – | aberrant cells without gaps | 0% |
| COc1cccc2c1C(=O)c1c(O)c3c(c(O)c1C2=O)C[C@@](O)(C(=O)CO)C[C@@H]3O[C@H]1C[C@H](N)[C@H](O)[C@H](C)O1 | MCF-10A | – | – | 50 µM, 48 (unit not given) | relative to: negative control | cytotoxicity | 0.5 ± 0.3% |
| CNC(=O)c1ccc(-c2cnc3ncc(Cc4ccc5ncccc5c4)n3n2)cc1F | – | CTCAE v4.0, any causality | human cancer patients | oral, 600 mg twice daily, expansion cohort at RP2D | – | dry mouth incidence (all grades) | 11% |
| Oc1c(Br)cc(Br)c2cccnc12 | pigeon embryo fibroblasts | – | – | – | – | CC50 | 30 µM |
| CCN(c1ccc(OC)cc1)S(=O)(=O)C1CC2OC1C(c1ccc(O)cc1)=C2c1ccc(NC(=O)C=C(C)C)cc1 (stereo not shown) | MCF-10A | cell viability | – | 72 (unit not given) | – | IC50 | 20.1 ± 1.06 µM |
| Oc1c(I)cc(Cl)c2cccnc12 | pigeon embryo fibroblasts | – | – | – | – | CC50 | 40 µM |
| CC(=O)O[C@H]1C(=O)[C@@]2(C)[C@H]([C@H](OC(=O)c3ccccc3)[C@]3(O)C[C@H](OC(=O)[C@H](O)[C@@H](NC(=O)c4ccccc4)c4ccccc4)C(C)=C1C3(C)C)[C@]1(OC(C)=O)CO[C@@H]1C[C@@H]2O | CHP-212 parental | SRB | – | 0.01372 µM | – | viability | 66.1% and 76.7% |

| Compound | target or system | assay | test system | conditions | scale | quantity | result |
| --- | --- | --- | --- | --- | --- | --- | --- |
| COC[C@@H](CC(C)C)NC(=O)c1ccc(C)c(C)c1 | primary human lymphocytes | item: structural aberrations | – | 280 µg/mL, 4 h, without S9 | – | cells with aberrations | 0% |
| CSc1ccc(OCc2ncc([N+](=O)[O-])n2C)cc1 | pigeon embryo fibroblasts | – | – | – | – | CC50 | ~200 µM |
| CCCCC[P+](/C=C(/c1ccccc1)c1cc(Cl)ccc1O)(CCCCC)CCCCC.[Cl-] | human red blood cells | – | PBS | 1 h, 37 °C | – | HC50 | 180 µM |
| Cc1nn(-c2nc3c(F)cc(F)cc3s2)c(O)c1C(c1ccc(C(F)(F)F)cc1)c1c(C)nn(-c2nc3c(F)cc(F)cc3s2)c1O | THP1-Dual | cell viability, CCK-8 | – | 24 h | – | CC50 | 64.5 µM and 74.7 µM |
| C[C@]12CC[C@@H]3c4ccc(O)cc4C[C@@H](CCCCCCCCC[S+]([O-])CCCC(F)(F)C(F)(F)F)[C@H]3[C@@H]1CC[C@@H]2O (stereo partly shown) | MCF7 | CCK-8 | – | 20 nM | relative to: untreated | viability | 61.1% and 64.1% and 58.3% |
| C#Cc1cccc(Nc2ncnc3cc(OCCOC)c(OCCOC)cc23)c1 | HPrEC normal prostate epithelial cells | MTT | – | 0.2 µg/mL, 2% serum | – | viability | 86.5% |
| C[C@]12CC[C@@H]3c4ccc(O)cc4C[C@@H](CCCCCCCCC[S+]([O-])CCCC(F)(F)C(F)(F)F)[C@H]3[C@@H]1CC[C@@H]2O (stereo partly shown) | MCF-10A | cell viability | – | 72 (unit not given) | – | IC50 | > 50 µM |
| CCOc1cc(CC(=O)N[C@@H](CC(C)C)c2ccccc2N2CCCCC2)ccc1C(=O)O | CYP2C8 | substrate | human, plasma | 0.5 mg, day 1 | – | mean half-life | 2.19 h |
| CN1C[C@@H]2C[C@H]1CN2c1cc2c(cc1F)c(=O)c(C(=O)O)cn2C1CC1 | MDCK-II parental | basolateral-to-apical transport, transepithelial transport | HBSS with HEPES | 10 µM, 4 h | – | percent transported | 19.4 ± 3.45% |
| Cc1c(O)cccc1C(=O)N[C@@H](CSc1ccccc1)[C@H](O)CN1C[C@H]2CCCC[C@H]2C[C@H]1C(=O)NC(C)(C)C | HEK293T tetracycline-induced EGFP-ΔE | cytotoxicity | – | – | relative to: vehicle | EC50 | 4.2 µM |
| CN(C)[C@@H]1C(O)=C(C(N)=O)C(=O)[C@@]2(O)C(O)=C3C(=O)c4c(O)ccc(Cl)c4[C@@](C)(O)[C@H]3C[C@@H]12 | pigeon embryo fibroblasts | – | – | – | – | CC50 | 40 µM |
| C=CC(=O)Nc1ccc(C2=C(c3ccc(O)cc3)C3OC2CC3S(=O)(=O)N(CC(F)(F)F)c2ccc(O)cc2)cc1 (stereo not shown) | MCF-10A | cell viability | – | 72 (unit not given) | – | IC50 | 20.7 ± 0.88 µM |
| COc1ncnc(C2CC2)c1-c1ncc2cnn(Cc3ccc(-c4nc(C(F)(F)F)cn4C(C)C)cc3)c2n1 | CHP-212 parental | SRB | – | 6.25 µM | – | viability | 87.1% and 83.2% |
| CC(C)=CC(=O)Nc1ccc(C2=C(c3ccc(O)cc3)C3OC2CC3S(=O)(=O)N(CC(F)(F)F)c2ccc(F)cc2)cc1 (stereo not shown) | MCF-10A | cell viability | – | 72 (unit not given) | – | IC50 | > 50 µM |
| COc1cccc(-c2n[nH]c(SCc3ccccn3)n2)c1OC | CHO-WBL | – | – | 100 µg/mL, 3 h, added: rat liver S9 | – | micronuclei per binucleated cell | 0.02 |
| CCOC(=O)c1c(C)nc2ccc(-c3ccc(OCc4ccccc4)c(F)c3)cc2c1O | MCF-10A | MTT | – | up to 100 µM | – | cytotoxicity | not toxic |
| CCCCCCC[P+](/C=C(/c1ccccc1)c1cc(Cl)ccc1O)(CCCCCCC)CCCCCCC.[Cl-] | human red blood cells | – | PBS | 1 h, 37 °C | – | HC50 | 34 µM |
| CC(=O)OC[C@H]1O[C@@H]([S-])[C@H](OC(C)=O)[C@@H](OC(C)=O)[C@@H]1OC(C)=O.CCP(CC)CC.[Au+] | Toxoplasma gondii | parasite growth | HFF, bradyzoite, glutamine-induced | – | – | EC90 | 1.46 µM |
| CCOC(=O)c1c(C)nc2ccc(-c3cccc(F)c3)cc2c1O | MCF-10A | MTT | – | up to 100 µM | – | cytotoxicity | not toxic |
| Cc1nn(-c2nc3ccc(Cl)c(Cl)c3[nH]2)c(O)c1C1OC(=O)c2ccccc21 (stereo not shown) | RAW-ISG (mouse) | cell viability, CCK-8 | – | 24 h | – | CC50 | 70.1 µM |
| CC(C)c1nc(CN(C)C(=O)N[C@H](C(=O)N[C@H](CC[C@H](Cc2ccccc2)NC(=O)OCc2cncs2)Cc2ccccc2)C(C)C)cs1 | HEK293T ΔE | cytotoxicity, item: cell count | – | – | relative to: vehicle | EC50 | 66.2 µM |
| O=C(CCl)Nc1ccc(C2=C(c3ccc(O)cc3)C3CC(S(=O)(=O)Oc4ccccc4)C2O3)cc1 (stereo not shown) | MCF-10A | cell viability | – | 72 (unit not given) | – | IC50 | 9.02 ± 0.27 µM |
| Cc1cc(Nc2ccc(S(F)(F)(F)(F)F)cc2)n2nc(C(C)(F)F)nc2n1 | Plasmodium falciparum | 12-lead ECG | malaria patients | oral, 250 mg, increase above 30 ms | – | patients with QTcF increase | 33.3% |
| COCCOC(=O)C1=C(C)NC(C)=C(C(=O)OC/C=C/c2ccccc2)C1c1cccc([N+](=O)[O-])c1 (stereo not shown) | Toxoplasma gondii | parasite growth | HFF, bradyzoite, alkaline-induced | – | – | EC90 | 22 µM |

Some of these lines once more:
| Compound | target or system | assay | test system | conditions | scale | quantity | result |
| --- | --- | --- | --- | --- | --- | --- | --- |
| CNC(=O)c1ccc(-c2cnc3ncc(Cc4ccc5ncccc5c4)n3n2)cc1F | – | CTCAE v4.0, any causality | human cancer patients | oral, 600 mg twice daily, expansion cohort at RP2D | – | dry mouth incidence (all grades) | 11% |
| Cc1c(O)cccc1C(=O)N[C@@H](CSc1ccccc1)[C@H](O)CN1C[C@H]2CCCC[C@H]2C[C@H]1C(=O)NC(C)(C)C | HEK293T tetracycline-induced EGFP-ΔE | cytotoxicity | – | – | relative to: vehicle | EC50 | 4.2 µM |
| Cc1nn(-c2nc3ccc(Cl)c(Cl)c3[nH]2)c(O)c1C1OC(=O)c2ccccc21 (stereo not shown) | RAW-ISG (mouse) | cell viability, CCK-8 | – | 24 h | – | CC50 | 70.1 µM |
